Measurements from different studies.
Numbered parts are unrelated; each lists some results of a single study. Substitutions count along the parent as printed.

Sample 1
Target: Centromere-binding protein 1, full length, N-terminal tag (CBF1, Saccharomyces cerevisiae, UniProt P17106, residues 1-351)
Sequence of UniProt P17106 (whole entry, looked up): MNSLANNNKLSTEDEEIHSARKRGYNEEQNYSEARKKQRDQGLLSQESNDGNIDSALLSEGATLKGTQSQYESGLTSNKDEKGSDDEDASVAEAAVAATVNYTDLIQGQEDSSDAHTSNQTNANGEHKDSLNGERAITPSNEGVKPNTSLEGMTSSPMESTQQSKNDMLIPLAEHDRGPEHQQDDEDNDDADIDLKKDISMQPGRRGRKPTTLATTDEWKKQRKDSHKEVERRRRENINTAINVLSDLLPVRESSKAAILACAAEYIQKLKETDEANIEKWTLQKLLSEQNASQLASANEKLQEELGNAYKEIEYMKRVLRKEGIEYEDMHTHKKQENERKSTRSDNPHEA
Method: protein-binding microarray
Molecule type: double-stranded DNA, one strand shown
Medium: in vitro
Concentration: 0.8 µM
Setting: whole 60-bp probe, no competitor
Reading: higher = stronger binding
Quantity: fluorescence intensity
Constant ends, left off below: … GTCTTGATTCGCTTGACGCTGCTG
GAAGTCACCTCGTGTGTCGTGATAAATAATCAATAG: 1090 a.u.
CTATTATGCATATGAAACGTGATATCCACCGTTTTC: 1080 a.u.
GAACTTAATCACTCCGGCGTGGGGAAAGAAAGCTAG: 522 a.u.
CTATGATGGTGGTGGCACGCGATAGTACGGCACTTC: 572 a.u.
GAAAACGTGCACCAACACGTGTGCGGCAACCTGTAG: 4040 a.u.

Sample 2
Target: Interferon regulatory factor 5, full length, phosphomimetic (IRF5, Homo sapiens, UniProt Q13568-2, residues 1-514, S451D/S453D/S456D/S462D)
Method: protein-binding microarray
Molecule type: double-stranded DNA, one strand shown
Medium: in vitro
Concentration: 940 nM top
Setting: 60-bp whole probe
Together with: salmon DNA 0.4 mg/ml
Relative to: random background probes
Reading: higher = stronger binding
Quantity: fitted relative affinity
Constant ends, left off below: GCCTAGCAC … GTCTTGATTCGCTTGACGCTGCTG
GACTGTATCCTACTGCTGACGTGCTAG: -0.0824 z-score
GACGATATCAGCCTGGAGACGTGCTAG: -0.28 z-score
TTAGGTTTCGGAACTGGGTTAGTGCTA: 7.96 z-score
TCAGATTTCCCCACCATACTGTGCTAG: 1 z-score
GCAACACTCACCATGGCTAGGTGCTAG: -0.102 z-score
GATGTTTTGAGTTTTCCTTCGTGCTAG: 0.894 z-score
TCATCTTTCTCTGCTACCACTGTGCTA: 2.02 z-score

Sample 3
Target: CCNA2, cyclin fold, Cln2 fusion (human)
Method: yeast growth competition, sequencing
Medium: yeast
Setting: weak parent motif
Relative to: not given
Reading: higher = stronger binding
Quantity: normalised enrichment score
Parent: SLBP docking peptide (human); ARYKRKLLINDFG
G13R: -0.0625
D11Y: 2.75
D11F: 2.12
N10T: 1.21
I9R: 0.762

Mixed results
PhoQ, residues 284 288 289 292 302 303 AGCYAI
fold induction (PhoP, residues 12 14 15 18 19 STWGI (Escherichia coli, UniProt P23836); Sort-seq, refers to: YFP reporter; E. coli; PhoQ-PhoP variant library, together with: 10 µM Mg2+; relative to: high Mg2+ state, higher = stronger signaling): 1.22

Repeated from above (sample 2):
TCAGATTTCCCCACCATACTGTGCTAG: 1 z-score
GCAACACTCACCATGGCTAGGTGCTAG: -0.102 z-score
GATGTTTTGAGTTTTCCTTCGTGCTAG: 0.894 z-score
